Experimental data pooled from the literature.
Several values in a cell are separate wells, animals, samples, runs or records. ± marks the error that the study gave.
Chain of UniProt O75676 (whole entry, looked up): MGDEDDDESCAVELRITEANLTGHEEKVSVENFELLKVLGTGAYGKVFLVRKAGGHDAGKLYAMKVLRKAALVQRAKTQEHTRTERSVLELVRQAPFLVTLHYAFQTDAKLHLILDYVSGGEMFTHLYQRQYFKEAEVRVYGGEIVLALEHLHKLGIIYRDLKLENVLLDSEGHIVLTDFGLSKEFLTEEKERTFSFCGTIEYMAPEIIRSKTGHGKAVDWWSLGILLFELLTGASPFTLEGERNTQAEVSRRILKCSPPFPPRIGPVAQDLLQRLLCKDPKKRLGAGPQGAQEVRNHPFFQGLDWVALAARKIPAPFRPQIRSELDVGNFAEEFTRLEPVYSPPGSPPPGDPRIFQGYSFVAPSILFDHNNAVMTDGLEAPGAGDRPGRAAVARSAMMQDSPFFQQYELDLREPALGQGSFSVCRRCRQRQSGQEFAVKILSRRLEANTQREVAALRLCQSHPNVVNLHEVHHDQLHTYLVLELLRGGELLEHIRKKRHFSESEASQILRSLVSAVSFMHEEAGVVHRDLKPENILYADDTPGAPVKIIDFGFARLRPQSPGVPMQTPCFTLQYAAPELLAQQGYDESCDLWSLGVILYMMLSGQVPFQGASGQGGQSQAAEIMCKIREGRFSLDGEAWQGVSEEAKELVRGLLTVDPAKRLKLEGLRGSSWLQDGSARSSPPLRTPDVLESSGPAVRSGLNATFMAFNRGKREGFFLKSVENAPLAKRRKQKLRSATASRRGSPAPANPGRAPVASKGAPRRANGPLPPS

SMILES	target or system	assay	system	setting	how to read	measurement	result
CCCCSC(=S)N1CCN(C(=O)/C=C/c2coc3ccccc3c2=O)CC1	–	N condensate formation, confocal microscopy, item: N-YFP	Nicotiana benthamiana leaves	100 µg/mL, 72 h post-injection, injected 36 h post-infiltration	–	inclusion body count	69 and 40 and 54 and 56
Nc1ncc(-c2cc(-c3cnn(CC(F)(F)F)c3)ncc2F)nc1C(=O)NC1CNCC(F)C1 (stereo not drawn)	NEK3	KINOMEscan	–	1 µM	reference: DMSO control	remaining binding	100%
CNS(=O)(=O)Nc1nccc(Cc2c(C)c3ccc(Oc4ncccc4F)cc3oc2=O)c1F	HT115	cell viability	–	7 days	–	IC50	625 nM
CC[C@H](C)[C@H](NC(=O)[C@H](Cc1ccc(O)cc1)NC(=O)[C@H](CCC(=O)O)NC(=O)CNC(=O)[C@H](CCC(=O)O)NC(=O)[C@H](CCCCN)NC(=O)[C@H](CCCCN)NC(=O)[C@H](CC(=O)O)NC(=O)[C@H](Cc1c[nH]cn1)NC(=O)[C@H](Cc1c[nH]cn1)NC(=O)[C@H](Cc1c[nH]cn1)NC(=O)[C@H](Cc1c[nH]cn1)NC(=O)[C@H](Cc1c[nH]cn1)NC(=O)[C@H](Cc1c[nH]cn1)NC(=O)[C@H](Cc1c[nH]cn1)NC(=O)[C@H](Cc1c[nH]cn1)NC(=O)[C@H](Cc1c[nH]cn1)NC(=O)[C@@H](N)Cc1c[nH]cn1)C(=O)N[C@@H](CCCCN)C(=O)N[C@@H](CC(C)C)C(=O)N[C@@H](CCCCN)C(=O)N[C@H](C(=O)N[C@H](C(=O)NCC(=O)N[C@@H](CCC(N)=O)C(=O)N[C@@H](CC(=O)O)C(=O)N[C@@H](CO)C(=O)N[C@@H](CO)C(=O)N[C@@H](CCC(=O)O)C(=O)N[C@H](C(=O)N[C@@H](Cc1c[nH]cn1)C(=O)N[C@@H](Cc1ccccc1)C(=O)N[C@@H](CCCCN)C(=O)N[C@H](C(=O)N[C@@H](CCCCN)C(=O)N[C@@H](CCSC)C(=O)N[C@H](C(=O)N[C@H](C(=O)N[C@@H](Cc1c[nH]cn1)C(=O)N[C@@H](CC(C)C)C(=O)N[C@@H](CCCCN)C(=O)N[C@@H](CCCCN)C(=O)N[C@@H](CC(C)C)C(=O)N[C@@H](CCCCN)C(=O)N[C@@H](CCC(=O)O)C(=O)N[C@@H](CO)C(=O)N[C@@H](Cc1ccc(O)cc1)C(=O)N[C@@H](CS)C(=O)N[C@@H](CCC(N)=O)C(=O)N[C@@H](CCCNC(=N)N)C(=O)N[C@@H](CCC(N)=O)C(=O)O)[C@@H](C)O)[C@@H](C)O)C(C)C)[C@@H](C)CC)[C@@H](C)CC)C(C)C	–	pseudopupil	Drosophila α-synuclein A53T transgenic	120 µM	reference: untreated	rhabdomere count mean difference	-1.68
COc1cc(N2CCN(C(=O)C3CCCN3)CC2)ccc1Nc1ncc(Cl)c(Nc2ccccc2P(C)(C)=O)n1 (stereo not drawn)	–	–	nude mice, NCI-H3122 xenograft	oral, 25 mg/kg every two days, day 5	–	tumour volume	58 mm3 and 53.8 mm3 and 186 mm3 and 18.1 mm3 and 129 mm3
C=CC(=O)Nc1cccc(Cn2ncc3cnc(Nc4cnn(CCOC)c4)nc32)c1	human MINK	KINOMEscan	–	100 nM	reference: control	binding	84%
Cc1ncsc1-c1ccc(C(C)NC(=O)C2CC(O)CN2C(=O)C(NC(=O)CCCCCCCCCCN2CCCC(Nc3ncc(Cl)c(Nc4ccccc4S(=O)(=O)C(C)C)n3)C2)C(C)(C)C)cc1 (stereo not drawn)	22Rv1	RNA-seq, item: RANBP3L mRNA	–	concentration not given	reference: DMSO	log2 fold change	-1.92
COc1cc(O)ccc1CCC(c1ccc(O)cc1)c1cc2c(c(C)c1O)OC(c1ccc(O)cc1)CC2 (mixture of isomers)	–	–	human blood	10 µM, with: A23187	–	14-HDHA level	560 ± 142 pg/mL
NC[C@@H](C(=O)Nc1ccc(-c2cn[nH]c2)cc1)c1ccccc1	–	–	normotensive Macaca cyclopis, right eye	0.03 %, pre-dose	–	intraocular pressure	21.1 mmHg
COc1ccccc1C(C[N+](=O)[O-])c1c(-c2ccccc2)[nH]c2ccccc12 (stereo not drawn)	–	mechanical allodynia, von Frey	mice, CFA inflammatory pain	dose not given, 6 h, highest dose	–	maximal possible effect	75%
CC(=O)[O-].O.O.O.O.[Ni+2].[O-]c1ccc(Br)cc1C=NCCN1CCOCC1	–	superoxide scavenging	–	160 µM	–	inhibition	41.4%
C=C(NC(=O)c1csc(-c2nc3c(cc2O)-c2nc(cs2)C(=O)NC(C(C)O)C(=O)NC(=C(C)OC)c2nc(cs2)C(=O)NC2c4nc(cs4)C(=O)NC(COC(=O)c4c5c6c(cccc6n4O)COC(=O)C(OC4CC(C)(O)C(N(C)C)C(C)O4)C2OC5)c2nc-3cs2)n1)C(N)=O (stereo not drawn)	–	–	cynomolgus monkey, female, plasma	intravenous infusion, 3 mg/kg, multiple doses, day 7	–	AUC(0-last)	25300 ng·h/mL
Cc1cn(CC(=O)N(CC(=O)N[C@H]2CCC[C@@H]2N(CC(=O)N[C@H]2COC[C@@H]2N(CC(=O)N[C@H]2COC[C@@H]2N(CC(=O)N[C@H]2COC[C@@H]2N(CC(=O)NCCOCCOCC(N)=O)C(=O)Cn2cnc3c(N)ncnc32)C(=O)Cn2cc(C)c(=O)[nH]c2=O)C(=O)Cn2cnc3c(N)ncnc32)C(=O)Cn2cnc3c(=O)[nH]c(N)nc32)[C@H]2CCC[C@@H]2NC(=O)CN(C(=O)Cn2cnc3c(=O)[nH]c(N)nc32)[C@H]2CCC[C@@H]2NC(=O)CN(C(=O)Cn2cc(C)c(=O)[nH]c2=O)[C@H]2COC[C@@H]2NC(=O)CN(C(=O)Cn2cnc3c(N)ncnc32)[C@H]2COC[C@@H]2NC(=O)CN(C(=O)Cn2cnc3c(=O)[nH]c(N)nc32)[C@H]2COC[C@@H]2N)c(=O)[nH]c1=O	–	UV melting	RNA duplex with T·C mismatch	pH 7.2, 1 µM each strand	–	Tm	58.2 °C
Cc1cc(OCCOCCn2ccnc2)cc(C(C)C)c1	–	locomotor activity in dark	zebrafish larvae, 7 dpf	10 µM, minute 7, dark phase	–	larval motion	0.8 ± 0.4 pixels/frame
COc1ccccc1-c1ccncc1C(=O)Nc1nnc(OCc2ccc(Cl)cc2)s1	–	–	Brca1 Δ11/Δ11 MEF sgGFP, Mus musculus	10 µM, mean of all runs	reference: 0 µM	colony survival	55.2%
C=Cc1c(C)c2cc3nc(c(CC(=O)[O-])c4[n-]c(cc5nc(cc1[n-]2)C(C)=C5CC)c(C)c4C(=O)[O-])C(CCC(=O)[O-])C3C.[Cu+2].[Na+].[Na+].[Na+] (stereo not drawn)	–	DCF fluorescence	bone marrow mononuclear cells, C57BL/6 mouse, female, cyclophosphamide-treated	dose not given, with: cyclophosphamide	reference: cyclophosphamide alone	reactive oxygen species level	decreased
Cc1cccc(NC(=O)CCN2CCN(C/C=C/c3ccccc3)CC2)c1	–	–	zebrafish larvae, 7 dpf	10 µM, minute 2	–	larval motion	5 ± 1 pixels/frame
CCC(=O)N[C@@H](C)C(=O)OCC(=O)N[C@@H](C)C(=O)O	–	–	water	pH 6, 37 °C	–	chain scission rate constant	0.0016 h⁻¹
Cc1cc(NC(=O)CCN2CCCCC2)ccc1Br	–	–	zebrafish larvae, 7 dpf	10 µM, minute 4	–	larval motion	17.5 ± 1.7 pixels/frame
N[C@@H](CNC(=O)N[C@@H](CS)C(=O)NCC(=O)O)C(=O)O	–	ELISA	mouse C57BL/6, Aβ i.c.v. model, brain lysate	intranasal, dose not given	–	TNF-α level	22.1 ± 1.2 pg/mg protein

SMILES	target or system	assay	system	setting	how to read	measurement	result
CC1Cc2ccccc2N1C(=O)CN1CCN(Cc2ccccc2)CC1 (stereo not drawn)	–	hole-board test	PC7-WT mice	1 mg/kg	reference: vehicle	head-pokes	increased
COC1CN([C@H]2CC[C@H]([C@@]3(C)Oc4c(Cl)cc(C(=O)NCc5c(SC)cc(C)[nH]c5=O)c(C)c4O3)CC2)C1	–	RNA-seq, item: PDE2A	human, whole blood	dose not given, 24 h	reference: pretreatment baseline	log2 fold change	3.49
COc1ccc(C(=O)CCc2cc(C(CCc3ccc(O)cc3OC)c3ccc(O)cc3)c(O)cc2OC)cc1 (racemic)	–	–	human blood	10 µM, with: A23187	–	14-HDHA level	722 ± 188 pg/mL
CN1CCCNC(=O)c2cccc(c2)C(=O)NCCCN(C)CCCNc2cccc3c2C(=O)c2cccc(c2C3=O)NCCC1	SAS	RNA-Seq, item: MPHOSPH8 mRNA	–	1 µM, 6 h	reference: untreated cells	log2 fold change	-0.677
Cc1cn(CC(=O)N(CCNC(=O)CN(CCNC(=O)CN(CCNC(=O)CN(CCNC(=O)CN(CCNC(=O)CN(CCNC(=O)CN(CCNC(=O)CN(CCN)C(=O)Cn2cnc3c(=O)[nH]c(N)nc32)C(=O)Cn2cnc3c(N)ncnc32)C(=O)Cn2cc(C)c(=O)[nH]c2=O)C(=O)Cn2cnc3c(=O)[nH]c(N)nc32)C(=O)Cn2cc(C)c(=O)[nH]c2=O)C(=O)Cn2cnc3c(=O)[nH]c(N)nc32)C(=O)Cn2cnc3c(N)ncnc32)CC(=O)NCCN(CC(=O)NCCOCCOCC(N)=O)C(=O)Cn2cnc3c(N)ncnc32)c(=O)[nH]c1=O	–	UV melting	RNA duplex with T·G mismatch	pH 7.2, 1 µM each strand	–	Tm	35.3 °C
Cn1ncc2cc(-c3cncc(Cl)c3N3CCC4(CCNC4=O)CC3)ccc21	LS174T	gene expression, microarray, item: MT1F mRNA	–	concentration not given, 24 h	reference: untreated cells	log2 fold change	-2.01
COc1cc2c(cc1OC)-c1cc3ccc(OC)c(OC)c3c[n+]1CC2.[Cl][Fe-]([Cl])([Cl])[Cl]	–	–	–	1.0 mg/mL, 30 min, 25 °C	–	DPPH scavenging	33.4%
CO.COc1ccc2c(c1)c(CC(=O)[O-])c(C)n2C(=O)c1ccc(Cl)cc1.COc1ccc2c(c1)c(CC(=O)[O-])c(C)n2C(=O)c1ccc(Cl)cc1.O.[Co+2].c1ccc(Nc2ccccn2)nc1	–	DPPH	methanol	concentration not given, 30 min	–	DPPH radical scavenging	6.73 ± 0.65%
CN(C)C(=O)c1ccnc(N2Cc3cn(Cc4ccc(F)cc4F)nc3C2)n1	–	–	mouse, hippocampal slice, Schaffer collaterals	dose not given, interstimulus interval 500	reference: second over first response	paired-pulse ratio	1.55 and 1.13 and 1.05 and 1.14 and 1.09 and 1.12 and 1.04 and 1.17
COc1cccc(OCC(O)CN2CCN(c3ccccc3OC)CC2)c1 (stereo not drawn)	–	–	zebrafish larvae, 7 dpf	10 µM, minute 2	–	larval motion	3.8 ± 1.4 pixels/frame
Cc1cccc(C)c1CNc1cc(C(=O)N2CCC2)cn2c(C)c(C)nc12	–	histamine-stimulated acid secretion	pylorus-ligated rat	oral, 2 mg/kg, with: histamine	–	total acid output	34.4 ± 8.1 µEq/3 h
O=C(CCN1CCN(C/C=C/c2ccccc2)CC1)Nc1ccccc1	–	locomotor activity in dark	zebrafish larvae, 7 dpf	10 µM, minute 5, dark phase	–	larval motion	2.5 ± 0.6 pixels/frame
CN1CCC[C@]1(C)/C=C/S(=O)(=O)NC(=O)Nc1c2c(cc3c1CCC3)CCC2	–	–	human, whole blood ex vivo	25 mg single dose, 6 h, single ascending dose, with: LPS and ATP	–	IL-1β inhibition	98.2%
O=C(CCN1CCN(C/C=C/c2ccccc2)CC1)Nc1ccc2c(c1)CCC2	–	locomotor activity in dark	zebrafish larvae, 7 dpf	10 µM, minute 1, dark phase	–	larval motion	5 ± 0.9 pixels/frame
C[C@@H]1CN(c2ccnc(C(=O)N[C@H]3C[C@@H]3c3ccccc3)c2)CC[C@@H]1O	–	–	female heterozygous SLC6A8 P549L mice, right cortex	oral, 30 mg/kg twice daily, 8 h	–	creatine concentration	1260 µg/mL and 1000 µg/mL and 1200 µg/mL
Cc1cc(OCCOCCN(C)C)cc(C(C)C)c1	–	–	zebrafish larvae, 7 dpf	10 µM, minute 4	–	larval motion	11.2 ± 1.3 pixels/frame
Cc1cn(CC(=O)N(CC(=O)N[C@H]2COC[C@@H]2N(CC(=O)NCCOCCOCC(N)=O)C(=O)Cn2cnc3c(N)ncnc32)[C@H]2COC[C@@H]2NC(=O)CN(C(=O)Cn2cnc3c(N)ncnc32)[C@H]2COC[C@@H]2NC(=O)CN(C(=O)Cn2cnc3c(=O)[nH]c(N)nc32)[C@H]2COC[C@@H]2NC(=O)CN(C(=O)Cn2cc(C)c(=O)[nH]c2=O)[C@H]2COC[C@@H]2NC(=O)CN(C(=O)Cn2cnc3c(=O)[nH]c(N)nc32)[C@H]2COC[C@@H]2NC(=O)CN(C(=O)Cn2cc(C)c(=O)[nH]c2=O)[C@H]2COC[C@@H]2NC(=O)CN(C(=O)Cn2cnc3c(N)ncnc32)[C@H]2COC[C@@H]2NC(=O)CN(C(=O)Cn2cnc3c(=O)[nH]c(N)nc32)[C@H]2COC[C@@H]2N)c(=O)[nH]c1=O	–	UV melting	RNA duplex with T·G mismatch	pH 7.2, 1 µM each strand	–	Tm	57.5 °C
O=C(CCN1CCN(C/C=C/c2ccccc2)CC1)Nc1ccccc1F	–	locomotor activity in dark	zebrafish larvae, 7 dpf	10 µM, minute 5, dark phase	–	larval motion	2 ± 0.8 pixels/frame
Cc1nn(-c2cccc(N)c2)c(=O)c2cnc(Nc3ccc(N4CCNCC4)cc3)nc12	RPS6KA4 (Homo sapiens, UniProt O75676)	enzyme activity, inhibitor	–	–	–	IC50	2980 nM

For quick reference, copied from above:
SMILES	target or system	assay	system	setting	how to read	measurement	result
Cc1cn(CC(=O)N(CCNC(=O)CN(CCNC(=O)CN(CCNC(=O)CN(CCNC(=O)CN(CCNC(=O)CN(CCNC(=O)CN(CCNC(=O)CN(CCN)C(=O)Cn2cnc3c(=O)[nH]c(N)nc32)C(=O)Cn2cnc3c(N)ncnc32)C(=O)Cn2cc(C)c(=O)[nH]c2=O)C(=O)Cn2cnc3c(=O)[nH]c(N)nc32)C(=O)Cn2cc(C)c(=O)[nH]c2=O)C(=O)Cn2cnc3c(=O)[nH]c(N)nc32)C(=O)Cn2cnc3c(N)ncnc32)CC(=O)NCCN(CC(=O)NCCOCCOCC(N)=O)C(=O)Cn2cnc3c(N)ncnc32)c(=O)[nH]c1=O	–	UV melting	RNA duplex with T·G mismatch	pH 7.2, 1 µM each strand	–	Tm	35.3 °C
CNS(=O)(=O)Nc1nccc(Cc2c(C)c3ccc(Oc4ncccc4F)cc3oc2=O)c1F	HT115	cell viability	–	7 days	–	IC50	625 nM
Nc1ncc(-c2cc(-c3cnn(CC(F)(F)F)c3)ncc2F)nc1C(=O)NC1CNCC(F)C1 (stereo not drawn)	NEK3	KINOMEscan	–	1 µM	reference: DMSO control	remaining binding	100%
C=C(NC(=O)c1csc(-c2nc3c(cc2O)-c2nc(cs2)C(=O)NC(C(C)O)C(=O)NC(=C(C)OC)c2nc(cs2)C(=O)NC2c4nc(cs4)C(=O)NC(COC(=O)c4c5c6c(cccc6n4O)COC(=O)C(OC4CC(C)(O)C(N(C)C)C(C)O4)C2OC5)c2nc-3cs2)n1)C(N)=O (stereo not drawn)	–	–	cynomolgus monkey, female, plasma	intravenous infusion, 3 mg/kg, multiple doses, day 7	–	AUC(0-last)	25300 ng·h/mL
